Experimental data pooled from the literature.
Numbered parts are unrelated; each lists some results of a single study. Changes are numbered by the printed parent chain.

Study 1
Target: Histone acetyltransferase KAT6A, winged helix 1, GST fusion (KAT6A, Homo sapiens, UniProt Q92794, residues 1-85)
Method: protein binding microarray
Form: double-stranded DNA, one strand shown
Sample: in vitro
Concentration: not given
Setting: 8-mer, flanks averaged, mean of 2 arrays, mostly near background
Relative to: not given
Reading: higher = stronger binding
Construct (chain): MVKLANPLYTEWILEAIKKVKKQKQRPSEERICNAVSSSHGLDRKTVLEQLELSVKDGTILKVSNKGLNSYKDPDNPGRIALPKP
Oligonucleotide | E-score
ACGTTATA | -0.117
CGGTTAGA | 0.105
CGGAGCCG | 0.422
AGAACTAC | 0.0128
CCCGTGAA | 0.182
AGGTCGAC | -0.27
CGTAGTAA | -0.0375
ATGGCCCC | 0.074
CTTTTAGC | -0.056
AAGACAGG | -0.141
CGCGACCC | 0.267
CATGGTCC | -0.0465
ACGCTTTG | 0.234
CTGAAAGA | -0.0595

Study 2
Target: JUN, bZIP domain (human)
Method: DHFR protein complementation
Sample: yeast
Setting: single substitutions, most at no-binding floor
Relative to: wild-type JUN-FOS pair
Reading: higher = stronger binding
Starting sequence: JUN, bZIP domain (human); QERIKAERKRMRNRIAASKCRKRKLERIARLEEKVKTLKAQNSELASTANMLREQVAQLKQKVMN; partner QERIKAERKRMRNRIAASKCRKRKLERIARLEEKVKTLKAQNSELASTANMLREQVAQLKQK
Variant | binding fitness [natural log]
E33L | -0.312
K34R | -0.113
N42R | -0.72
E44D | -0.5
Q41E | -0.134
E33G | -0.545
S43Y | -0.294
R53W | -1.08
Q41K | -0.36
V35M | -0.716
S43K | -0.0218
I28A | -0.728

Study 3
Target: ABI1, truncated, D143A, DHFR fusion (Arabidopsis thaliana)
Method: DHFR PCA, deep sequencing
Sample: yeast
Setting: methotrexate growth selection, single substitutions
Added: (+)-ABA 17 µM
Relative to: wild-type fitted maximum
Reading: higher = stronger binding
Starting sequence: PYL1, truncated, DHFR fusion (Arabidopsis thaliana); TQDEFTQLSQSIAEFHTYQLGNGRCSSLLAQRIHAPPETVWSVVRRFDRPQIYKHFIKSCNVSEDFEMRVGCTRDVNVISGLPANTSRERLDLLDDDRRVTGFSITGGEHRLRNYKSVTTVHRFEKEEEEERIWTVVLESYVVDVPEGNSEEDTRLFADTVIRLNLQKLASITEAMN
Variant | relative binding score [%]
L164G | 49.6
V70G | 22.5
I162Q | 9.45
N177T | 92.6
G23K | 75.2
R32A | 69.5
E129A | 93
V143Y | -10.7
S150M | 21.9
T101P | 0.856
T160K | 62.2
D75C | 81.3
L166G | -7.1
F103V | -7.17
G23I | 21.8
L156G | 57.1
L28N | -15.8
G148A | 47.2
C60M | 6.91
E152S | 82.8
Y53V | 2.17
D95K | 18.7
D153Y | 3.56
E38C | 48.4

Study 4
Target: Prothrombin, mature alpha-thrombin (F2, Homo sapiens, UniProt P00734)
Method: aptamer microarray, sandwich
Form: DNA with 2'F-ANA
Sample: in vitro
Concentration: 200 nM
Setting: whole 15-mer aptamer, many near background
Added: Cy3 exosite-II aptamer, 400 nM
Reading: higher = stronger binding
Oligonucleotide: GGTTGGTGTGGTTGG
Modification | mean fluorescence intensity
2'F-ANA at 2 3 4 6 7 15 | 566 a.u.
2'F-ANA at 3 6 11 | 876 a.u.
2'F-ANA at 2 3 6 7 12 14 15 | 473 a.u.
2'F-ANA at 1 3 5 6 10 15 | 46.2 a.u.
2'F-ANA at 3 6 7 10 15 | 488 a.u.
2'F-ANA at 1 2 4 6 7 9 11 12 14 15 | 57 a.u.
2'F-ANA at 2 3 5 6 8 9 10 12 13 14 15 | 51.4 a.u.
2'F-ANA at 3 5 6 10 12 15 | 59 a.u.
2'F-ANA at 3 4 5 7 8 9 11 14 | 54.3 a.u.
2'F-ANA at 3 5 10 13 14 | 63.8 a.u.
2'F-ANA at 3 4 11 12 13 | 679 a.u.

Study 5
Target: UBE2V2 UBC core domain (UniProt Q15819)
Method: yeast two-hybrid
Sample: yeast
Setting: mostly zero background
Relative to: not given
Reading: higher = stronger interaction
B1: DTX1 RING domain (UniProt Q86Y01); chain QKVKNPPDEDCTICMERLVTASGYEGVLRHKGVRPELVGRLGRCGHMYHLLCLVAMYSNGNKDGSLQCPTCKAIYGEKTGTQ
B2: RNF181 RING domain (UniProt Q9P0P0); chain VIRGSQAELKCPVCLLEFEEEETAIEMPCHHLFHSSCILPWLSKTNSCPLCRYELPTDDDTY
Residues (chain): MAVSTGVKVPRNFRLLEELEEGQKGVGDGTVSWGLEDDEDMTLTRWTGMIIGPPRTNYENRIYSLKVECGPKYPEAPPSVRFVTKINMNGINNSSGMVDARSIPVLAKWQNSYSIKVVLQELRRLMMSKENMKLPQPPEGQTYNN
Sequence | lacZ reporter activity
MDDQGCPRCKTTKYRNPSLKLMVNVCGHTLCESCVDLLFVRGAGNCPECGTPLRKSNFRV (MNAT1 RING domain (UniProt P51948)) | 0
QLRRLQEERTCKVCLDRAVSIVFVPCGHLVCAECAPGLQLCPICRAPVRSRVRTF (BIRC7 RING domain (UniProt Q96CA5)) | 0
B1 (DTX1 RING domain) | 0
NTAPSLTVPECAICLQTCVHPVSLPCKHVFCYLCVKGASWLGKRCALCRQEIPEDFLDK (RNF146 RING domain (UniProt Q9NTX7)) | 0
B2 (RNF181 RING domain) | 0

Study 6
Target: CCNA1, cyclin fold, Cln2 fusion (human)
Method: yeast growth competition, sequencing
Sample: yeast
Setting: weak parent motif
Relative to: not given
Reading: higher = stronger binding
Starting sequence: MASTL docking peptide (human); PMIAKNLMCELDE; partner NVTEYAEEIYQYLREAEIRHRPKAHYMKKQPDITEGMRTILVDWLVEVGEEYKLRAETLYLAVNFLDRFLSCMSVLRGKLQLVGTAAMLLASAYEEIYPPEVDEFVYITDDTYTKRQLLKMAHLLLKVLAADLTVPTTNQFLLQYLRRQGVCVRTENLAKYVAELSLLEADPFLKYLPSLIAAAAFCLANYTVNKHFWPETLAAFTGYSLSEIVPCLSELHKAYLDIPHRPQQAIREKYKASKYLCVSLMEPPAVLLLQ
Variant | normalised enrichment score
PMGAKNLMCELDE [I3G] | 0.311
PPIAKNLMCELDE [M2P] | 0.123
PMIAKNLMCILDE [E10I] | 0.397
PMQAKNLMCELDE [I3Q] | -0.0599
PMIAKNLMGELDE [C9G] | 0.0505
PMIAKWLMCELDE [N6W] | -0.261
PMIANNLMCELDE [K5N] | 0.162
PMIAKNLMCELQE [D12Q] | 0.293
PMIAKNTMCELDE [L7T] | -0.38
PMIAKNIMCELDE [L7I] | 0.0119
PMIAFNLMCELDE [K5F] | -0.0222
PMIAKNLMCELRE [D12R] | 2.03e-05
PMIAKNLMCEIDE [L11I] | 0.237
PCIAKNLMCELDE [M2C] | -0.0462
PMIAKNLMCEWDE [L11W] | 0.0843
PMEAKNLMCELDE [I3E] | 0.164
PMIAKNLMSELDE [C9S] | 0.0316

Study 7
Target: RNA binding protein fox-1 homolog 2, RRM domain, GST-SBP tag (RBFOX2, Homo sapiens, UniProt O43251-10, residues 100-194)
Method: RNA Bind-n-Seq
Form: RNA
Sample: in vitro
Concentration: 365 nM
Setting: natural RNA segment, single round, ends assumed
Relative to: no-protein control
Reading: higher = stronger binding
Shared flanks, not repeated: GGGAGUUCUACAGUCCGACGAUC … UGGAAUUCUCGGGUGCCAA
Target sequence (chain): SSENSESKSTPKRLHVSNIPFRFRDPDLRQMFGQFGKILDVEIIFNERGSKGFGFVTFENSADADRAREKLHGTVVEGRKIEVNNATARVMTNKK
Oligonucleotide | RBNS enrichment (R)
UUGCCGCUUCAGACAGUACUGCGAGCAAUGGCUGCCUUGUCGGAGUGAGUGUGUAGCUGGACACCUUAGAGGACCCUAUGAAAUUGGAUAUGGAGACUGAUUUGGUGGGA | 0.772
GCAAAAUCUGUCUUGUGAAUGGACUGUCAGCUGUUAAACUGUUCCUGUUUUGAAGUGCUAUUACCUUUCUCAGUUACCAGAAUCUUGCUGCUAAAGUUGCAAGUGAUUGA | 0.945
UACCUAGGAACUGCCUCAACCUCCCACCAGUUCUUCCCUGCCCCUCCCUUCUGUCUAGAUUCACUUCAGUUUAUUGUUGGGAACUGUGCAGGUCCAAGACCUGGACUCCU | 0.197
AGGCCCGCUUUGAUAUUCAUUCAGUCUGUAGUAGUAACUUCAGAAAGACCUGGAGGACCUUUCCCCUAGGCACCUACACUCCUCCAUUGUCUGUCUAUGUUGUGCCUUAG | 0.46
CGGUUCAGGGGGGGAGUAGGAAGUAAAACCGUGGAGAGGCAAGUGAGAAACGCAUACUCUCCCCGUUCAGUGUUGUCUGUGCUUUGUUUGGAUCCACGCCUUGCGUGGGA | 1.25
GGAUGAGAAACAGGCAUCUCCCAGGCUCCAAGCCUAUUUGGAGGUGACACGGUUGAGUGCUUCUGGGCCGGAAUCCUUAUGGGAAAUCACGUCAAUAAAUUUUAAACGCU | 0.318
CAACUGAAAUAAAAUAACCUAAAGUUUGCUACUAUGCUCUGAAGAUAAAGUGUGUUUUCAGGCUCAAUUAUUUCACCUUAAUGUAAUGUACUGUAAGAUUUUGUACUGAA | 0.886
CCGUGGUCUGACUUGACCCUGGGCCUUUUGGACACAGGUCAGCCUUCUGAUGUUUUCUGGCUGUCUUAGCAUUCGCCUUUUCUCUUGCCAGCCAGUUCUGGGGAUUCAGA | 0.325
UGUCUUUGAAUUAGAAUCCAGACUAGUGUGGGAAGCAGUCUCUCUGGACUUUGAUUUAGGGAUCAUGUUUUGGCCUGGAAAAUAAGCAUUGGCCUGCGUGUUUAGAAGCU | 0.863
UUCCUCCUGCUCCAAACUUUGCCCAUCCUCUUUGCCCCCUCAGGAGUGCUGAGGGCCAGUGUUGACCCACACUACCCUCCCUUGACCAGCUGUCUGGGACCGGAAACCAG | 0.847
ACAGGGCAUAUCUUUGUUAAAGUAGAUUUUUCAAUGUUUUACAGAAUUACAUUUUCAAAAAAAGGUUUUUAUAAUGAAGUUGUUUAUUAAAAACUUCUGAAUGAUGUGUU | 1.69
UGUCGACCUGGAUGAGGUCGCCUAUUUCACCUGGGCUUCCUGACCCAGCUCAGAACCUAGGAAUCCCACAGCCCUAACCCCAGCCUUCAUACAGACUUUUAAUCCUCUAC | 0.346

Excerpt of the above (study 3):
Variant | relative binding score [%]
F103V | -7.17
L164G | 49.6
C60M | 6.91
D95K | 18.7
V70G | 22.5
S150M | 21.9
G23I | 21.8
N177T | 92.6
D153Y | 3.56
T160K | 62.2
L166G | -7.1
L156G | 57.1
G23K | 75.2
